Published values from different studies.
Numbered parts are unrelated; each lists some results of a single study.
Chain of UniProt P10721 (whole entry, unmodified, looked up): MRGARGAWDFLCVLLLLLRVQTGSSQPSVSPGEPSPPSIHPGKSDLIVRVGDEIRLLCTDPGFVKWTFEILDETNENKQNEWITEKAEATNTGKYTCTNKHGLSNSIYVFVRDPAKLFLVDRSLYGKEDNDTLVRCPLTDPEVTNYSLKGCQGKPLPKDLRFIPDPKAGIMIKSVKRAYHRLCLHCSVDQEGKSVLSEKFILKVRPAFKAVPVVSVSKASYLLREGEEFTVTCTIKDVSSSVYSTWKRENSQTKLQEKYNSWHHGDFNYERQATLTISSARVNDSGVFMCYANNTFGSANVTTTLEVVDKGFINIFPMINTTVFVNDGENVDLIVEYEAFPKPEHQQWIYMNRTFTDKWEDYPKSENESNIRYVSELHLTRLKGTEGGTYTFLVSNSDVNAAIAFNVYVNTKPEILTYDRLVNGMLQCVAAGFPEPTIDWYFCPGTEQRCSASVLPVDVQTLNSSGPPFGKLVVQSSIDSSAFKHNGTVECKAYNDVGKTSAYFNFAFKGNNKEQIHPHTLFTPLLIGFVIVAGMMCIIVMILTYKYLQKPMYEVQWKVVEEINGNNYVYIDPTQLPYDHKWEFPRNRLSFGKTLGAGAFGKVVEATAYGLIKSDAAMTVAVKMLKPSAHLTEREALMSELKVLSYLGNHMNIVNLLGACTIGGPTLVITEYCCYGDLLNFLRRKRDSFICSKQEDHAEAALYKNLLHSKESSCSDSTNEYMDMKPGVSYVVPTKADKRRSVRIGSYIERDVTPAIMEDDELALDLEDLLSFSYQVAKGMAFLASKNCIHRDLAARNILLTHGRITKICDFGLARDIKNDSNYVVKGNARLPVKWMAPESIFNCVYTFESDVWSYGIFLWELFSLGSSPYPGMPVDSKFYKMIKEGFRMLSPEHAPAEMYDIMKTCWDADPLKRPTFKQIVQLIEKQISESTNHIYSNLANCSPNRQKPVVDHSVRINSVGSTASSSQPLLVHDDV
Chain of UniProt P30559 (whole entry, looked up): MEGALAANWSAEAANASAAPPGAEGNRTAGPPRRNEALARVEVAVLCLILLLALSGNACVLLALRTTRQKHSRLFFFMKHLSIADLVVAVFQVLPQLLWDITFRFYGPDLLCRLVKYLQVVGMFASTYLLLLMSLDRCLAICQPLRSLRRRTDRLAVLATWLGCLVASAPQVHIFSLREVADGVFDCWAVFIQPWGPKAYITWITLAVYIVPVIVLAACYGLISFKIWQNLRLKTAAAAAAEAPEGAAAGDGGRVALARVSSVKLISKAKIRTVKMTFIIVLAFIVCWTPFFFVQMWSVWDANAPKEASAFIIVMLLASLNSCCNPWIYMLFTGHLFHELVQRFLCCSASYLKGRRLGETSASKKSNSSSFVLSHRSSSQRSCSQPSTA
Chain of UniProt Q15391 (whole entry, looked up): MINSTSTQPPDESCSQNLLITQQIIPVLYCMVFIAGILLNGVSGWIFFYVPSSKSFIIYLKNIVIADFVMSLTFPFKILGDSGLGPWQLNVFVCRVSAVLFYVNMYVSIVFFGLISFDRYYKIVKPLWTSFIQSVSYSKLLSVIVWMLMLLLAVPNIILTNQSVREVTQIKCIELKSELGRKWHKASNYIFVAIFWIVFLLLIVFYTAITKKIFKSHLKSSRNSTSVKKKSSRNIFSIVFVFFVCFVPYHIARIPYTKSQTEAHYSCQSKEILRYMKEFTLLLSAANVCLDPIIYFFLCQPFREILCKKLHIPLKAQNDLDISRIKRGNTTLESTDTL
Chain of UniProt P07947 (whole entry, looked up): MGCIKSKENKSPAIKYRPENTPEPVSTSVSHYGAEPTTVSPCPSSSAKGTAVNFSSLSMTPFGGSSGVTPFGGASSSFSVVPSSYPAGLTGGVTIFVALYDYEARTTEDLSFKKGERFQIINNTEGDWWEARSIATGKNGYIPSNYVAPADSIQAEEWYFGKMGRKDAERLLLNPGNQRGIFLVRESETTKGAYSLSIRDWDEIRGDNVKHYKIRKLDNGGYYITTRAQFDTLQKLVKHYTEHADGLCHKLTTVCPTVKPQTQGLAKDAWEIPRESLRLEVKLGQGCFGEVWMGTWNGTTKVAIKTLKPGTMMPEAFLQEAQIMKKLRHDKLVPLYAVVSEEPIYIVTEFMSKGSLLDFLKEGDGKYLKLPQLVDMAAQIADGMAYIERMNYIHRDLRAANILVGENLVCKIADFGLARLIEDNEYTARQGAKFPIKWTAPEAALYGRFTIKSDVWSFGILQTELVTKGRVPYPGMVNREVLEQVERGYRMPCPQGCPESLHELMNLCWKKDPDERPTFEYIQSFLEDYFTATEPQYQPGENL
Chain of UniProt Q9Y271 (whole entry, looked up): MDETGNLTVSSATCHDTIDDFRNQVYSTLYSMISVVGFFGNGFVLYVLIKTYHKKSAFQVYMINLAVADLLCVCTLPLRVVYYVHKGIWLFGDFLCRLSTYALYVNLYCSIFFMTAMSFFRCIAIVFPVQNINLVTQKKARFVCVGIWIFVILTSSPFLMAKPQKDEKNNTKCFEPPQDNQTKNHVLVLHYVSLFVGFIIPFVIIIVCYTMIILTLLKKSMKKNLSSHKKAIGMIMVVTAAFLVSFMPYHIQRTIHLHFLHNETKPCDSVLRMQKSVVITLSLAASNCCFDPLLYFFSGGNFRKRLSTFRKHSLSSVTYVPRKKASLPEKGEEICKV
Chain of UniProt Q07912 (whole entry, looked up): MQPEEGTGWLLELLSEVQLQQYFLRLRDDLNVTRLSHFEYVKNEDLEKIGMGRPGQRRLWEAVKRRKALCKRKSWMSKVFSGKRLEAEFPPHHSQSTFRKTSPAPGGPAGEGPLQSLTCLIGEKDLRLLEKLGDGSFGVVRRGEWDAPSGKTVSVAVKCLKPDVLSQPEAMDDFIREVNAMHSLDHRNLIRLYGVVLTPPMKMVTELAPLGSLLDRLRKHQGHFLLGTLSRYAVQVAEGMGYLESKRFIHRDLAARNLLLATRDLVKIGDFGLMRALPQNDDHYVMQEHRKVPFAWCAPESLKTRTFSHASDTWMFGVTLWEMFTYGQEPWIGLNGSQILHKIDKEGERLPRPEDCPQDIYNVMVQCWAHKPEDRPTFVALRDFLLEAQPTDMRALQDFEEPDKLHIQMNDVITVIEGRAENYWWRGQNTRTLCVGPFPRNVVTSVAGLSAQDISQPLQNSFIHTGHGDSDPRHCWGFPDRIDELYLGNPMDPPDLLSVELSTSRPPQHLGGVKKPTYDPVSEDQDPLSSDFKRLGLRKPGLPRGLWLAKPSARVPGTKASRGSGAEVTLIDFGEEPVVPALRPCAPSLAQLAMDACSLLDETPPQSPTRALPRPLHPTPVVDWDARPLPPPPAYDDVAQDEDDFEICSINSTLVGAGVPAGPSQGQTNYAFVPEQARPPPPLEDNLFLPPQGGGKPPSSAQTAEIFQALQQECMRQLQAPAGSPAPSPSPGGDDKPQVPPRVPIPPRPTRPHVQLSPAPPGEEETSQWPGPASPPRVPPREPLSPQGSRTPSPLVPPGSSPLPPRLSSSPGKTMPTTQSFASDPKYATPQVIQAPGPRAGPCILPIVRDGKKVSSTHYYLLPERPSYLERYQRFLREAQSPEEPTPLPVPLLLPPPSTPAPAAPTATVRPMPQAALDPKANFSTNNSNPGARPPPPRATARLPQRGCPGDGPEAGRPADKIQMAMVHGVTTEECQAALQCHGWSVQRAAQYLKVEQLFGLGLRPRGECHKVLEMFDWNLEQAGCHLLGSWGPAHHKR
Chain of UniProt Q7L7X3 (whole entry, looked up): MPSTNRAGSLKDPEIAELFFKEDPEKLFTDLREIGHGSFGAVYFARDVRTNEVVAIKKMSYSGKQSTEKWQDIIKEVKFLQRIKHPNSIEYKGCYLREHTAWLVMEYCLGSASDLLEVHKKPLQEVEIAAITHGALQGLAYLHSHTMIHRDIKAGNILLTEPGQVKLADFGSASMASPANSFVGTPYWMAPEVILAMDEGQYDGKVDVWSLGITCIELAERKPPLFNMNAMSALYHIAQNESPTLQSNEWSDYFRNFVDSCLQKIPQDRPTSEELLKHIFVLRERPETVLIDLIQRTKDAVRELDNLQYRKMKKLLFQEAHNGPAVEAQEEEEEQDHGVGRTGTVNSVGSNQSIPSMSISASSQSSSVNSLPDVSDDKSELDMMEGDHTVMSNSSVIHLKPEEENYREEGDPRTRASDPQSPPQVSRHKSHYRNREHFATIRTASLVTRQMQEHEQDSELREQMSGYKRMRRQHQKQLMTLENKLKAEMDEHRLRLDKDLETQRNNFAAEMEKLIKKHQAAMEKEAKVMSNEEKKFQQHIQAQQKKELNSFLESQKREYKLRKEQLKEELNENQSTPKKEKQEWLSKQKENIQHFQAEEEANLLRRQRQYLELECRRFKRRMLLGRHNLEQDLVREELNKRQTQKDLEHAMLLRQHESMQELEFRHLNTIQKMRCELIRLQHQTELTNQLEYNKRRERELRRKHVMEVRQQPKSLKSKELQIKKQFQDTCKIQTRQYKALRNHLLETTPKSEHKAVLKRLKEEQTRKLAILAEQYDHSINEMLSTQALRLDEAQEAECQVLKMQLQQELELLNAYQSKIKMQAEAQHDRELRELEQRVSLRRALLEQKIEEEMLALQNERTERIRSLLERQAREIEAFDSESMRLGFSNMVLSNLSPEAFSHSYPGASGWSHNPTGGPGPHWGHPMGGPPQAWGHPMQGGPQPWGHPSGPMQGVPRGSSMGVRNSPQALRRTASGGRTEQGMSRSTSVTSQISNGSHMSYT
Chain of UniProt P48729 (whole entry, looked up): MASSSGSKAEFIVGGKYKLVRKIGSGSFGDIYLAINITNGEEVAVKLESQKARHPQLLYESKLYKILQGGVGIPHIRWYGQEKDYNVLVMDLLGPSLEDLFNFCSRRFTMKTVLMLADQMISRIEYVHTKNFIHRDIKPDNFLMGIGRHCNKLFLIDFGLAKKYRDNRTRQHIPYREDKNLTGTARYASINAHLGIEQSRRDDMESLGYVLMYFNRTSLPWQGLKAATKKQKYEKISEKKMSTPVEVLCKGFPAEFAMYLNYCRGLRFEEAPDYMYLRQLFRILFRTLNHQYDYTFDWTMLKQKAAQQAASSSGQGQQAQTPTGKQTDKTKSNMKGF

Block 1
Target: Protein kinase C zeta type (PRKCZ, Homo sapiens, UniProt Q05513)
Observed: enzyme activity
Action: inhibitor
Tested at: 0.5 µM
Baseline: control
Residues (Q05513 1-592): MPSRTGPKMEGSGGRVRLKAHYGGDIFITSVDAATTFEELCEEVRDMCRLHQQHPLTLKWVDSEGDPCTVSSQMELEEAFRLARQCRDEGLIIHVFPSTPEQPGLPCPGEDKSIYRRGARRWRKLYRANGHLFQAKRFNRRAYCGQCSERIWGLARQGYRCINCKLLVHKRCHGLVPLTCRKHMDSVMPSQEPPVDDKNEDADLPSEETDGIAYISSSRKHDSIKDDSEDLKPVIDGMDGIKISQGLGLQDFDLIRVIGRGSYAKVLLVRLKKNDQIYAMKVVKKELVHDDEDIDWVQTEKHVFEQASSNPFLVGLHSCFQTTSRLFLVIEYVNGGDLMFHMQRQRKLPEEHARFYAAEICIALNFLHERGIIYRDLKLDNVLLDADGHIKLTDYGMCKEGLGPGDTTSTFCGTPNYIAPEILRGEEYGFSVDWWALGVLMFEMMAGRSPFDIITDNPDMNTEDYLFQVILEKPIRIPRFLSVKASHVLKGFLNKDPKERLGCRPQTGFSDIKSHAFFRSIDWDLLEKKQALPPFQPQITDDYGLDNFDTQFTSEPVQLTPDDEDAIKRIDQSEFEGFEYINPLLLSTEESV
With `C[C@@H]1CCN(C(=O)CC#N)C[C@@H]1N(C)c1ncnc2[nH]ccc12` the remaining activity was 91.7%.
`COc1cc2ncnc(Nc3cccc(Cl)c3)c2cc1OC` gave a remaining activity of 102%.
`CCN(CC)CCNC(=O)c1c(C)[nH]c(/C=C2\C(=O)Nc3ccc(Cl)cc32)c1C` has a remaining activity of 104%.
For `CCN(CC)C(=O)c1ccc(Nc2nc(OCC3CCCCC3)c3[nH]cnc3n2)cc1`, the remaining activity was 95.8%.
With `N#C/C(=C\c1ccc(O)c(O)c1)C(=O)NCc1ccccc1` the remaining activity was 104%.
`Ic1cccc(CSc2nnc(-c3ccncc3)o2)c1` gave a remaining activity of 96.1%.
For `COc1cc2ncnc(Nc3ccc(O)c(Br)c3)c2cc1OC`, the remaining activity was 93%.
For `Nc1cccc(-c2cc3c(Oc4cccc(O)c4)ncnc3[nH]2)c1`, the remaining activity was 94%.
`c1ccc(-c2[nH]ncc2-c2ccnc3ccccc23)nc1` has a remaining activity of 115%.
`CCN(CC)CCNC(=O)c1c(C)[nH]c(/C=C2\C(=O)Nc3ccc(F)cc32)c1C` has a remaining activity of 91.7%.
With `CN(C)C[C@H]1CCn2c(c(C3=C(c4cn(C)c5ccccc45)C(=O)NC3=O)c3ccccc32)C1` the remaining activity was 31%.
For `Cn1nc2c3c(cccc31)C(=O)c1ccccc1-2`, the remaining activity was 97.9%.
With `Cc1cc2ncc(-c3ccccc3)nc2cc1C` the remaining activity was 88.6%.
With `COc1cc2c(cc1OC)-c1[nH]nc(Nc3cccc(F)c3)c1C2` the remaining activity was 99.7%.
For `O=C(NC(NC(=S)Nc1ccc(F)c([N+](=O)[O-])c1)C(Cl)(Cl)Cl)C(c1ccccc1)c1ccccc1` (stereo not drawn), the remaining activity was 98%.
`O=C(Nc1cccc(Nc2nccc(Nc3cccc(C(F)(F)F)c3)n2)c1)C1CC1` has a remaining activity of 98.8%.
`CCOc1nc(NC(=O)Cc2cc(OC)ccc2OC)cc(N)c1C#N` gave a remaining activity of 104%.
The remaining activity of `N#Cc1c(NC(=O)c2cccc3ccccc23)sc2c1CCCC2` is reported as 102%.
With `O=c1cc(-c2cccc3c2Sc2ccccc2S3)oc(N2CCOCC2)c1` the remaining activity was 102%.
For `Cc1nc2cc3nc(-c4cccs4)cnc3cc2n1C`, the remaining activity was 95.6%.
With `O=C1C(Cl)=C(N2C(=O)CCC2=O)C(=O)c2ccccc21` the remaining activity was 114%.
`c1ccc(-c2cnc(Nc3ccc(OCCN4CCCC4)cc3)s2)cc1` has a remaining activity of 96.3%.
The remaining activity of `O=C1c2ccccc2-c2n[nH]c3cccc1c23` is reported as 98.3%.

Block 2
Structure (SMILES): CC(C)CN(C)c1nc(N)c(C(=O)N=C(N)N)nc1Cl
Observed: β-arrestin recruitment
Action: agonist
Method: PRESTO-Tango
Tested at: 10 µM
Baseline: untreated
For CYSLTR1 (Homo sapiens, UniProt Q9Y271): “fold over basal” read 1.29.
AGTR1 (Homo sapiens, UniProt P30556) — “fold over basal”: 0.73.
ADGRG3 (Homo sapiens, UniProt Q86Y34) — “fold over basal”: 0.92.
It gave 0.79 for “fold over basal” (Oxytocin receptor (OXTR, Homo sapiens, UniProt P30559)).
ADRB3 (Homo sapiens, UniProt P13945) — “fold over basal”: 0.64.
For G-protein coupled receptor 151 (GPR151, Homo sapiens, UniProt Q8TDV0): “fold over basal” read 1.69.
For P2Y purinoceptor 14 (P2RY14, Homo sapiens, UniProt Q15391): “fold over basal” read 1.2.
TAAR1 (Homo sapiens, UniProt Q96RJ0) — “fold over basal”: 0.67 fold.
For PTH1R (Homo sapiens, UniProt Q03431): “fold over basal” read 0.48.
The “fold over basal” was 0.93 (PTGFR (Homo sapiens, UniProt P43088)).

Block 3
Structure (SMILES): NS(=O)(=O)c1cc(NC(=O)C2(c3ccccc3Cl)CC2)ccc1Oc1cccc(Cl)c1
Observed: cell-free assay
Method: competition with immobilised ligand
Tested at: 1 µM
CSNK1A1 (Homo sapiens, UniProt P48729) — remaining binding: 100%.
It gave 85% for remaining binding (EGFR (Homo sapiens, UniProt P00533, del752-759)).
For TNIK (Homo sapiens, UniProt Q9UKE5): remaining binding read 100%.
For NEK10 (Homo sapiens, UniProt Q6ZWH5): remaining binding read 89%.
For MAP2K2 (Homo sapiens, UniProt P36507): remaining binding read 89%.
The remaining binding was 93% (KIT (Homo sapiens, UniProt P10721, D816V)).
EPHA5 (Homo sapiens, UniProt P54756) — remaining binding: 79%.
The remaining binding was 77% (SRMS (Homo sapiens, UniProt Q9H3Y6)).
TNK2 (Homo sapiens, UniProt Q07912) — remaining binding: 82%.
The remaining binding was 100% (MAP4K5 (Homo sapiens, UniProt Q9Y4K4)).
For BRSK1 (Homo sapiens, UniProt Q8TDC3): remaining binding read 82%.
KIT (Homo sapiens, UniProt P10721) — remaining binding: 90%.
For PRKG1 (Homo sapiens, UniProt Q13976): remaining binding read 91%.
The remaining binding was 100% (TNK1 (Homo sapiens, UniProt Q13470)).
The remaining binding was 87% (BMX (Homo sapiens, UniProt P51813)).
For Tyrosine-protein kinase ABL1, non-phosphorylated (ABL1, Homo sapiens, UniProt P00519): remaining binding read 64%.
For SNRK (Homo sapiens, UniProt Q9NRH2): remaining binding read 100%.
It gave 100% for remaining binding (PAK2 (Homo sapiens, UniProt Q13177)).
It gave 91% for remaining binding (TAOK1 (Homo sapiens, UniProt Q7L7X3)).
For DYRK1A (Homo sapiens, UniProt Q13627): remaining binding read 90%.
It gave 90% for remaining binding (YES1 (Homo sapiens, UniProt P07947)).
It gave 100% for remaining binding (FGFR2 (Homo sapiens, UniProt P21802)).
It gave 97% for remaining binding (CAMK2A (Homo sapiens, UniProt Q9UQM7)).
The remaining binding was 81% (Tyrosine-protein kinase ABL1, non-phosphorylated (ABL1, Homo sapiens, UniProt P00519, H396P)).
It gave 79% for remaining binding (MAP3K11 (Homo sapiens, UniProt Q16584)).

Block 4
Cell line: A-375
Tested at: 100 µM
Time: 36 h
For `O=c1ccc2ccccc2o1`, the viability was 105%.
`CC1(C)CCC(CN2CCN(c3ccc(C(=O)NS(=O)(=O)c4ccc(NCC5CCOCC5)c([N+](=O)[O-])c4)c(Oc4cnc5[nH]ccc5c4)c3)CC2)=C(c2ccc(Cl)cc2)C1` has a viability of 25.3%.
The viability of `COc1ccnc(C[S+]([O-])c2nc3cc(-n4cccc4)ccc3[nH]2)c1C` (stereo not drawn) is reported as 72.3%.
The viability of `Clc1ccc(CCC(Cn2ccnc2)Sc2c(Cl)cccc2Cl)cc1` (stereo not drawn) is reported as -0.154%.
With `Cc1ccc(N(CC2=NCCN2)c2cccc(O)c2)cc1` the viability was 18.3%.
The viability of `COC1=C(OC)C(=O)C(C/C=C(\C)CC/C=C(\C)CC/C=C(\C)CC/C=C(\C)CC/C=C(\C)CC/C=C(\C)CC/C=C(\C)CC/C=C(\C)CC/C=C(\C)CCC=C(C)C)=C(C)C1=O` is reported as 94.6%.
The viability of `CCOC(=O)n1ccn(C)c1=S` is reported as 91.7%.
With `CC1CCc2c(N3CCC(O)CC3)c(F)cc3c(=O)c(C(=O)O)cn1c23` (stereo not drawn) the viability was 87.7%.
For `C[C@]12C=CC(=O)C=C1CC[C@@H]1[C@@H]2C(=O)C[C@@]2(C)[C@H]1CC[C@]2(O)C(=O)CO`, the viability was 110%.
The viability of `CC(=O)NCCCS(=O)(=O)O` is reported as 118%.
The viability of `C[C@@H](c1ncncc1F)[C@](O)(Cn1cncn1)c1ccc(F)cc1F` is reported as 88.3%.
